Results of several laboratories.
Every numbered part comes from another study and shows a few of its results, in no order. Several values in a cell are separate wells, animals, samples, runs or records.

Series 1
Target: HLA class I histocompatibility antigen, A alpha chain, allele A*25:01 (Homo sapiens, UniProt P04439)
Observed: peptide-MHC binding
Molecule type: peptide
Concentration: concentration not given
Molecule | binding
FPIPTEVVA | inactive
DLEKYNLAF | inactive
WMFRIRIIL | inactive
MPFDPSELV | inactive
RAWDPQPAM | inactive
AGGWVLWKV | inactive
KLADYLLLQ | inactive
FLAAECPFL | inactive

Series 2
Target: D(1B) dopamine receptor (DRD5, Homo sapiens, UniProt P21918)
Observed: binding
Method: radioligand binding
Concentration: 10 µM
Structure (SMILES) | inhibition [%]
CC1=C(C#N)[C@@H](c2ccc3[nH]nc(C)c3c2)C(C#N)=C(c2ccc(Cl)cc2)N1 | 58.1
CC(=O)N1CCC(c2ccc(C(=O)NC(=N)N)cc2C(F)(F)F)CC1 | -8.21
O=C1c2ccc(Nc3ccc(F)cc3F)cc2CCc2ccc(OC[C@H](O)CO)cc21 | 21
COc1cc(-c2cn(C3CCc4ccccc4N(CC(F)(F)F)C3=O)nn2)ccc1-n1ccc(C)n1 (stereo not drawn) | 20.1
C[C@@H]1CN(c2cc(-c3nn(C)c4ccc(OC5(C)CC5)cc34)ncn2)C[C@H](C)O1 | 3.61
COc1nc2ccc([C@@](O)(c3ccccc3)C3CCN(C(C)=O)CC3)cc2c(Cl)c1Cc1ccc(-n2cccn2)cc1 | 33.9
CCOCCn1cc(C(=O)Nc2ccc(-n3nc(-c4cccnc4)cc3C(F)(F)F)cn2)ccc1=O | -18.1
O=C(Nc1cccnn1)N1CCC(=Cc2cccc(Oc3ccc(C(F)(F)F)cn3)c2)CC1 | 29.3
Cc1cc(-n2nc(Cc3cc(F)cc(C(F)(F)F)c3)nc2C)ccc1C(N)=O | 14.3
COc1cccc(CNC(=O)c2nc3scc(COCc4ccc(C(=O)O)cc4)c3c(=O)[nH]2)c1 | 11.9
CC(=O)c1c(NS(C)(=O)=O)c2cc(-c3ccc(Cl)cc3)c(-c3ccc(Cl)cc3Cl)nc2n(C)c1=O | 44.5
Cc1cc(C)c(-n2ccn3nc(-c4cccnc4)cc23)cc1NC(=O)c1cc(C#N)cc(S(F)(F)(F)(F)F)c1 | -22.5

Mixed results
Structure (SMILES) | cell line | test | setting | scale | endpoint | result
C[C@]12Cc3c[nH]nc3C[C@@H]1CC[C@@H]1[C@@H]2CC[C@@]2(C)[C@H]1CC[C@]2(C)O | mouse MPNST tumor cells | high-content nuclear imaging, item: cell number | 10 µM, 12 h, mean of 2 replicates | relative to: plate mean, higher = more cells | nuclei count | 4.38 z-score
CC(C)(C)c1cnc(CSc2cnc(NC(=O)C3CCN(CCCCCSc4cccc5c4CN(C4CCC(=O)NC4=O)C5=O)CC3)s2)o1 (stereo not drawn) | HEK293T | trypan blue exclusion | 1000 nM, 24 h | – | viability | 84.5% and 89.2% and 87.9%
CN1CCC2(C)c3cc(O)ccc3N(C)C12 (single isomer, unassigned; (-)) | mouse MPNST tumor cells | high-content nuclear imaging, item: cell number | 10 µM, 12 h, mean of 2 replicates | relative to: plate mean, higher = more cells | nuclei count | -0.684 z-score
CC(NC(C)(C)C)C(=O)c1cccc(Cl)c1 (stereo not drawn) | mouse MPNST tumor cells | high-content nuclear imaging, item: cell number | 10 µM, 12 h, mean of 2 replicates | relative to: plate mean, higher = more cells | nuclei count | 1.43 z-score and 1.21 z-score

Some of these lines once more (series 2):
Structure (SMILES) | inhibition [%]
CC(=O)N1CCC(c2ccc(C(=O)NC(=N)N)cc2C(F)(F)F)CC1 | -8.21
O=C1c2ccc(Nc3ccc(F)cc3F)cc2CCc2ccc(OC[C@H](O)CO)cc21 | 21
COc1cc(-c2cn(C3CCc4ccccc4N(CC(F)(F)F)C3=O)nn2)ccc1-n1ccc(C)n1 (stereo not drawn) | 20.1
C[C@@H]1CN(c2cc(-c3nn(C)c4ccc(OC5(C)CC5)cc34)ncn2)C[C@H](C)O1 | 3.61
